# Assay results from different studies.
# Parts stem from different laboratories: compare values within a part only.

# Block 1
# Target: Sal-like protein 4, full length isoform A (SALL4, Homo sapiens, UniProt Q9UJQ4, residues 1-1053)
# Sequence of UniProt Q9UJQ4 (whole entry, looked up): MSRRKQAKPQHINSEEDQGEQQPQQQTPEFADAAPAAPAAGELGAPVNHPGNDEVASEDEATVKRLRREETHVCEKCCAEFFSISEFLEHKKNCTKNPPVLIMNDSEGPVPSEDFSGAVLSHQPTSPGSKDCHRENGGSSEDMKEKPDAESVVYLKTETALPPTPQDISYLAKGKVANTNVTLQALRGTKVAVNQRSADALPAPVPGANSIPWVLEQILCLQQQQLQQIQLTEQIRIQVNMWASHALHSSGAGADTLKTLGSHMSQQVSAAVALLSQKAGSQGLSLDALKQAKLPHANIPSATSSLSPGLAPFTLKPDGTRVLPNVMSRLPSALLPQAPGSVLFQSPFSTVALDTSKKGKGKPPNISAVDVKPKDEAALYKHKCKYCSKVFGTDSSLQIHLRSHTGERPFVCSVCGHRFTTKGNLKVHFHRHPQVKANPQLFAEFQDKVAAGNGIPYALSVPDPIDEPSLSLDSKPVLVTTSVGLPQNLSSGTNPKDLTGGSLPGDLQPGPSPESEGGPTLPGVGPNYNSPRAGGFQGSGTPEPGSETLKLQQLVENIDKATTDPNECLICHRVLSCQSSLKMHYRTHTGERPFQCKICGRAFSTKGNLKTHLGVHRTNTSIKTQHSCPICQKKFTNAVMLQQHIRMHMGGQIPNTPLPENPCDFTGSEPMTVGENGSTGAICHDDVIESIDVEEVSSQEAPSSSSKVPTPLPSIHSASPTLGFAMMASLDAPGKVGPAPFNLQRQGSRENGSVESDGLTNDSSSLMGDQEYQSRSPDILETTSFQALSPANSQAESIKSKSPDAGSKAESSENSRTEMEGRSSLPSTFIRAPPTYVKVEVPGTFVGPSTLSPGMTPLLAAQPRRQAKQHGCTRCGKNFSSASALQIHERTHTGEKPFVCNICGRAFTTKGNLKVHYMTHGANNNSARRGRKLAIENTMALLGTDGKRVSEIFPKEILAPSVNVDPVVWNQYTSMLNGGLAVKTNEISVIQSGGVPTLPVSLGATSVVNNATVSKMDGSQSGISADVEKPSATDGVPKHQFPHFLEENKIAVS
# Technique: universal PBM
# Form: double-stranded DNA, one strand shown
# Matrix: in vitro
# Concentration: 600 nM
# Setting: 8-mer, flanks averaged, mean of replicates
# Reading: higher = stronger binding
Sequence,E-score
AAGTCGGT,-0.103
GCCGTGAA,-0.105
AGTTTAAC,0.065
AAGATTGA,0.14
CCAACTTA,0.0126
AAGTCTCC,-0.0199
TGCGAGCA,-0.0566
AGTATAAT,0.35
ACATGAGT,0.0543
GATTCAAA,0.148
ACCATAAA,0.34
GTGCGGGA,-0.211
ACGAACTC,-0.0745
AAGTACAA,0.18
ACGGAACC,-0.132
CATTCAAG,-0.00455

# Block 2
# Target: PABPC1L2, full length, GST fusion (mouse, UniProt A0ABA7IW68)
# Technique: RNAcompete
# Form: RNA
# Matrix: in vitro
# Concentration: 20 nM
# Setting: 7-mer, probes averaged, single round
# Baseline: mean of 7-mers
# Reading: higher = stronger binding
# Target sequence (chain): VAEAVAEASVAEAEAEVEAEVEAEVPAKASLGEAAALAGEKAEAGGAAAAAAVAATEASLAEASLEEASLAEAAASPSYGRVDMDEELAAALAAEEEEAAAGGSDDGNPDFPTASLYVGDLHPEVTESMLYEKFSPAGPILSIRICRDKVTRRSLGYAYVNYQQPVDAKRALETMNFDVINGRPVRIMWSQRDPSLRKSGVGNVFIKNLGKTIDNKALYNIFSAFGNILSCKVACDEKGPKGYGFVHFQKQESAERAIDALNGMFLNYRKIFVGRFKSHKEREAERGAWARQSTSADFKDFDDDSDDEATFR
Sequence,7-mer Z-score
GAAUCAU,-0.142
CUUUCCU,-0.376
ACCGGCU,-0.15
UCGGAGG,0.218
CGGGCCA,-0.0192
UGUCGUG,-0.275
UGAGGAC,-0.0355
AACUUAA,0.314
AUGGUGC,0.153
CGGCUUA,-0.17

# Block 3
# Target: RNA binding protein fox-1 homolog 2, RRM domain, GST-SBP tag (RBFOX2, Homo sapiens, UniProt O43251-10, residues 100-194)
# Technique: RNA Bind-n-Seq
# Form: RNA
# Matrix: in vitro
# Concentration: 365 nM
# Setting: natural RNA segment, single round, ends assumed
# Baseline: no-protein control
# Reading: higher = stronger binding
# Target sequence (chain): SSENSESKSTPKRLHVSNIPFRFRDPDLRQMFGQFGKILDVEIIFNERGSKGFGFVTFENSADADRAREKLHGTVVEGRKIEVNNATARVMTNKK
Sequence,RBNS enrichment (R)
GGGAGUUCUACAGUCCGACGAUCCCUUCCUCAGCCUCUGGCCCUCUUGGCUCAGAUUCAAUCAAAUGUUGCUUCCCUCUCCUGUCUUUCCCACUGGAGCCGCCCAAGCUUGUAGGUGGGUGGUGUGCAUAGGCUGGAAUUCUCGGGUGCCAA,1.15
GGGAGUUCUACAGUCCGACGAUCCUAGAAGCAUGUGAAGAUGCCCAAGAGCCUGGAGACAUUGCCAUCCUUCCUACAGAAACUGUUUCUCCUCCUCCCCUCCAGCCUUCACACAAGGGCCUUGGCUUUGUUGAUGGAAUUCUCGGGUGCCAA,1.6
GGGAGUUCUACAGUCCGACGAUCAAUGAAAAUAUUCUAGUUAUUAAACUCUUGGUCUAGAAAUACUUCUGUCUGUAAACUUUGACAUCCAACCUGGAAAUCUAUUUGGUCAUGGUUAAAACAUUAUUCUCCUAUGGAAUUCUCGGGUGCCAA,0.389
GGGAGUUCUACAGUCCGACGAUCAAAAUAAAAAUAAAAAAUCCUCACCUCAACAUAGGUCUCUUUCAAAGGGAGAUUUCAAGCCACCUGACUUCUUCAGUUUAGUCUUCACCCAGGGUCAGAGCGCACAGCUUUGGAAUUCUCGGGUGCCAA,0.711
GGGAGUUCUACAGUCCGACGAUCUAUGCUCCAAGGAUCACCUCAGUUCUCUCUCAGAUUCUGGAAACAGAUGAAAUGCUCUUUGCAUUGUCUGAACCCUCUCUAAUUCUAUCAUGAUAACGCUACUGUGACGCUGGAAUUCUCGGGUGCCAA,0.429
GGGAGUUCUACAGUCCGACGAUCUUUCCAGACUUUUUUUUAAAAACACAUCGUGGGUUUUUUGAGGCUCCAACCUGAUUAGUGCAUGGUCAGCCCUCAAUGAAGGCUGAGGCAUCUCUGACUGAGGUGUUUUUUGGAAUUCUCGGGUGCCAA,0.785
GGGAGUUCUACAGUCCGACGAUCCUGUCAGCAUCCUCACACAGCGCCUCCAUUACAUGGAAAGGGCUGGCUGCAGUCUCAACCAGGAAUGGCCAGAAGCCUCCACAGCUCCAUUACAGUGCUUUGGCUGGCUGUGGAAUUCUCGGGUGCCAA,0.295
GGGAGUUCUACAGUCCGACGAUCAUCCAACUAAAAAUUACGCUAUCUAGAAUUGUACCAACCAAAAUCUCGUAUUGGCAGAUCUUGACAGGCUGGACCUGCAAGAUGUGGCUUGAAUUUUAACCAUUUAUUACUGGAAUUCUCGGGUGCCAA,0.403
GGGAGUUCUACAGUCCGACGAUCUUUGAAUUUAUGAUUAUUUUCCAGAAGAAAUCUUGUAAACCUGUGGAUACUCAUUAAUUCUUUUGUUAAUAUUUAUUUCCAUGAUAGCAUCAUUCCAGCCAGACUUGCUGUGGAAUUCUCGGGUGCCAA,0.86
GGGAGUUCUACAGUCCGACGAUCGCUUUAGGUCUUCCUGGUUUUUCAUAGUCAACAUUCCACUGAAAUGUACAUAGAAUUGCCAGUGUAUAAAUUAAGAUGUUUUAUUGUUGUUGUCCUUCUUAAUCUCAUUAUGGAAUUCUCGGGUGCCAA,0.677
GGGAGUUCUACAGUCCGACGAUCUCCAUUCCUUACUAUUCACUCACUCAUCUGUCUCCCUUCAUUUCACUGUUAGACUCUUUUCCACUUUCAACAAACUUGCAUGUCAGUUUCUGUCAUGUUUAUUUAUUGGAUGGAAUUCUCGGGUGCCAA,0.952
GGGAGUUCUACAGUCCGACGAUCCUGUUGGCACCAAAAAGCUAGGUUUUGUCUACCUCAGUUCUUGUCAUACCAAUCUCUACGGGAAAGAGAGGUAGGAGAGGCUGCGAGGAAGCUUGGGUUCAAGCGUCACUUGGAAUUCUCGGGUGCCAA,0.548

# Block 4
# Target: Prothrombin, mature alpha-thrombin (F2, Homo sapiens, UniProt P00734)
# Technique: aptamer microarray, sandwich
# Form: DNA with 2'F-ANA
# Matrix: in vitro
# Concentration: 200 nM
# Setting: whole 15-mer aptamer, many near background
# Added: Cy3 exosite-II aptamer, 400 nM
# Reading: higher = stronger binding
# Sequence: GGTTGGTGTGGTTGG
Modification,mean fluorescence intensity
2'F-ANA at 2 6 8 12 14,187 a.u.
2'F-ANA at 2 3 4 5 7 10 12 14,115 a.u.
2'F-ANA at 1 4 7 10 11 12 13 15,51.8 a.u.
2'F-ANA at 4 6 8 9 15,269 a.u.
2'F-ANA at 2 4 6 7 8 10 11 12 14 15,66.8 a.u.
2'F-ANA at 3 4 8 9 11 12 14,336 a.u.
2'F-ANA at 1 3 6 7 8 10 11 12 13,107 a.u.
2'F-ANA at 2 3 4 8 9 10 14 15,173 a.u.
2'F-ANA at 3 5 6 7 8 9 10 11 15,56.8 a.u.
2'F-ANA at 2 3 5 6 7 9 10 11 12 13 14 15,48.5 a.u.
2'F-ANA at 1 4 5 7 8 9 10 12 13 14 15,50.8 a.u.
2'F-ANA at 2 6 7 8 9 10 12,177 a.u.
2'F-ANA at 4 5 6 7 8 9 10 11 12 13 14 15,46.3 a.u.
2'F-ANA at 1 2 4 5 6 9 10 11 12,55.6 a.u.
2'F-ANA at 1 5 11 12 13 14,44.4 a.u.
2'F-ANA at 1 5 6 7 11 13,49.4 a.u.
2'F-ANA at 1 3 4 5 6 9 12 14 15,48.2 a.u.
2'F-ANA at 1 2 3 5 8 10 12 14 15,54.7 a.u.

# Block 5
# Target: Phosphate system positive regulatory protein PHO4, full length, GST-tagged (PHO4, Saccharomyces cerevisiae, UniProt P07270, residues 1-312)
# Technique: competition protein-binding microarray
# Form: double-stranded DNA, one strand shown
# Matrix: in vitro
# Concentration: 2 µM
# Setting: whole 60-bp probe, lowest competitor level
# Added: Cbf1 competitor, 0.05 µM
# Reading: higher = stronger binding
# Construct (chain): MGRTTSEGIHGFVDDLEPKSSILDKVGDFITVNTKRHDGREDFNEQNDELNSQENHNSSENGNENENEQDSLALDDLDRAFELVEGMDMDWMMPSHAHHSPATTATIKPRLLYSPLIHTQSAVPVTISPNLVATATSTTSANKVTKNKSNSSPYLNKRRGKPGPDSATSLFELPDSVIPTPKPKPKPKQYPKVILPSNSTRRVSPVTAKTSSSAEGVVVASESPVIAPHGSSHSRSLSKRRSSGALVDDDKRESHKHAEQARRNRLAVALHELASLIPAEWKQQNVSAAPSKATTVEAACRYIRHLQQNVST
Sequence,fluorescence intensity [a.u.]
AAAGCGGTAATTTGGGCAGTGGGTGCAGATATCTATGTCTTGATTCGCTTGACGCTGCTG,4320
AGTACATTCACTTCTAACGTGACGGGTTTCACCACAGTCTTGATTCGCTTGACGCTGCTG,5020
AATGTACAATTTTACCAGGCGTGGAACCTGGACCGGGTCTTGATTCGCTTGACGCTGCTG,5170
CATACCCAACCTTGATAGGTGGGTGAAGATATTTGTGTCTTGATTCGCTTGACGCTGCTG,3660
CATACCCAACCTTGGGTTGTGGGTGAAGATATTTGTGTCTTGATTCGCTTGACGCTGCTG,5220
CGGGGTTAAGTTTGTCACTGCACTTGCTTGCAGCAGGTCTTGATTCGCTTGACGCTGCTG,3600
CTTTCCCGATCTTGGACAGTGGGTGTAGCACATTTGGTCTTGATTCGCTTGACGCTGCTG,4200
AAATTACTAAGTTGGCTAGTGGGTGACGCCGTATGAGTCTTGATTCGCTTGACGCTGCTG,3670
GTCTTGTCTCATTGAGCCGTGGGTGTCCCCACTTCAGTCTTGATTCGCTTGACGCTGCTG,5420
GTCTTGTCTCATTGTGCGGTGGGTGTCCCCACTTCAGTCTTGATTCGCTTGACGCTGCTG,5690
CTTTCCCGATCTTGTACTGTGGGTGTAGCACATTTGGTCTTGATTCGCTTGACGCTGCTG,5040
ATGCGAGCGAACCGGCACATGTACCAAACTTTATCAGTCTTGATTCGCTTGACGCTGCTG,10900

# A few entries again (block 2):
Sequence,7-mer Z-score
GAAUCAU,-0.142
CUUUCCU,-0.376
ACCGGCU,-0.15
UCGGAGG,0.218
CGGGCCA,-0.0192
UGUCGUG,-0.275
UGAGGAC,-0.0355
AACUUAA,0.314
AUGGUGC,0.153
CGGCUUA,-0.17
